# Experimental data gathered from unrelated publications.
# Each line is one published result; not all experiments were run side by side. “And” joins repeats or separate records; there may be more than shown. ± gives the spread as reported.
SMILES,target or system,test,test system,setting,scale,endpoint,result
CC(C)C(=O)OC[C@H]1O[C@@H](n2ccc(NO)nc2=O)[C@H](O)[C@@H]1O,,,rat maternal blood dialysate,"5 ng/mL, 6 h, room temperature, low concentration, with: NHC 25 ng/mL",,bench-top stability,101 ± 2.07%
N#C/N=C1\SCCN1Cc1ccc(Cl)nc1,,,soil,"28 days, nominal 10",,recovery,1.9%
O=S(=O)(Nc1ccccc1)c1ccc(NC(=S)Nc2ccccc2)cc1,,,"mouse, male, kidney","oral, 20 mg/kg daily, 14 days",baseline: body weight,relative organ weight,1.64%
O=S(=O)(F)Oc1cc(C(F)(F)F)cc(C(F)(F)F)c1,,"chemical stability, HPLC-MS",borate buffered saline,"pH 10.2, no N-acetyl-lysine",,degradation rate constant,0.1 h⁻¹
C=CCNc1c(O)cc2c(O)c1C[C@@H](C)C[C@H](OC)[C@H](O)[C@@H](C)/C=C(\C)[C@H](OC(N)=O)[C@@H](OC)/C=C\C=C(/C)C(=O)N2,,,"unresectable or metastatic STS, GIST, other","intravenous, 90 mg/m^2",,patients with myalgia TEAE,17%
CC(C)N(CCc1c[nH]c2cccc(OC(=O)CCCC(=O)O)c12)C(C)C.Cl,,,"male beagle dog, plasma","intravenous, 1 mg/kg",,clearance,390 mL/min
C[C@@H]1COCCN1c1cc(C2([S@](C)(=N)=O)CC2)nc(-c2cc[nH]c3nccc2-3)n1,,,"patients, advanced solid tumours","oral, 40 mg twice daily, 7 days, with: carboplatin",,discontinuation due to adverse event,1 % patients
COc1ncccc1-c1cnn2ccc(N3CCN(C(=O)OC(C)C)CC3)nc12,,,"rat, thermal hyperalgesia model, plasma","oral, 0.1 mg/kg, 180 min",,drug concentration,9 nM
CC(=O)Nc1cccc(-n2c(=O)n(C3CC3)c(=O)c3c(Nc4ccc(I)cc4F)n(C)c(=O)c(C)c32)c1,,,Japanese patients,part,,discontinuation due to adverse event,17%
COc1cc2c(Oc3ccc4[nH]c(C)cc4c3F)ccnc2cc1OCC1(N)CC1,,,paediatric recurrent refractory sarcoma,12 mg,,grade 3 Neutropenia,18.2%
CCN1[C@@H](C(=O)NC23CCC(C(=O)O)(CC2)CC3)[C@H](c2cccc(Cl)c2F)[C@]2(C(=O)Nc3cc(Cl)ccc32)C12CCCCC2,,,patients with advanced solid tumours,"oral, 100 mg",,any-grade adverse event incidence,100%
[O-][S+]1CCc2nc(N3CCC(c4ncc(Cl)cn4)CC3)nc(NC3(CO)CCC3)c21 (stereo not drawn),,"phase I trial, item: upper abdominal pain",healthy male volunteers,"dose not given, single rising dose, all cohorts",,subjects with adverse events,8.3%
N#CCNC(=O)c1ccc(-c2ccnc(Nc3ccc(N4CCOCC4)cc3)n2)cc1,,,healthy volunteers,"oral, 200 mg, with: midazolam 5 mg",,presyncope incidence,0%
C[C@@H]1OC(=O)NN=C1c1ccc(-c2ccc(F)cc2)c(C(F)(F)F)c1,,"phase I trial, item: Fatigue worst grade 1",human patients,5 mg loading then 0.25 mg daily,,patients with adverse event,0%
CC(=O)c1c(C)c2cnc(Nc3ccc(C4CCN(CCS(C)(=O)=O)CC4)cn3)nc2n(C2CCCC2)c1=O,,,"human, plasma","oral, 75 mg, day 1 single dose",,t1/2,523 min
N[C@@H]1c2ccccc2OC12CCN(c1cnc3c(N4CCCc5ncccc54)n[nH]c3n1)CC2,,phase Ia,patients advanced metastatic solid tumours,"oral, all doses, any relationship",,peripheral oedema AE incidence,46%
Cc1cc(C)c(CNC(=O)c2cc(Cl)c3c(c2C)O[C@@](C)([C@H]2CC[C@H](N(C)C)CC2)O3)c(=O)[nH]1,,,relapsed/refractory NHL patients,"dose not given, trial, safety set, treatment-related TEAE grade 5",,incidence of mental status changes,0%
O=C(Nc1ccccc1)C1CCN(C(=O)Oc2cccnc2)CC1,,psychotropic effects VAS,healthy women,100 mg,"baseline: pre-dose baseline, direction not given",change in Time score,0.2
CNC(=O)c1cc(Cl)c(OC(C)(C)C(=O)O)cc1OC[C@@H](O)CN1CCC2(CC1)Cc1cc(Cl)ccc1O2,,,human,inhaled,,lung deposited fraction,0.66
C=CC(=O)Nc1cc(Nc2nccc(Nc3cc(Cl)c(F)cc3C(C)(C)O)n2)c(OC)cc1N1CC[C@@H](N(C)C)C1,,,human,"oral, dose not given",,creatine phosphokinase increased TEAE,25.5%
CCc1ccc(CC/C=C/c2ccc3c(c2)C(=O)CC3)cc1,,,"Sprague-Dawley rat, female","oral, 30 mg/kg/day, 14 days",,ALT serum activity,39.7 U/L
COc1cccc(-c2ccccc2NC(=O)C2CCN(Cc3ccccc3F)CC2)c1,Vero-E6,CellTiter-Glo ATP,,"concentration not given, 72 h, first round 5-point","baseline: DMSO 0%, hyamine -100%, more negative, more toxic",cytotoxicity efficacy,0%
C=CC(=O)N1CC[C@H](n2nc(C#Cc3cc(OC)cc(OC)c3)c3c(N)ncnc32)C1,,,human patients,"oral, dose not given, QD regimen, adverse drug reaction, with: lanthanum carbonate hydrate",,"hyponatremia incidence, grade ≥3",4.2%
c1ccc2cc3c(ccc4ccccc43)cc2c1,,,pooled human liver microsomes,"0.25 µM, pH 7.4",,metabolism rate,16.3 pmol/min/mg
O=c1ccc2cc3ccoc3cc2o1,,,"rat, plasma","oral, 217 mg/kg Pc extract",,AUC(0-inf),15400 ± 6730 ng·h/mL
CC1(C)[C@H](C=C(Cl)Cl)[C@H]1C(=O)OCc1cccc(Oc2ccccc2)c1,,item: CYP2C19,"human, age 5 years, recombinant human CYP2C19",0.1 µM,,enzyme contribution to clearance,0.33%
O=C1Nc2cc3[nH]nc(-c4ccncc4)c3cc2CN1Cc1ccccc1,,CTCAE v4.03,advanced solid tumour patients,"intravenous, 4.8 mg/kg, schedules 1/2",,patients with constipation,0%
CC(C)C[C@H](NC(=O)[C@H](CCCCN)NC(=O)OCC1c2ccccc2-c2ccccc21)C(=O)N[C@H](C(=O)N[C@@H](Cc1ccccc1)C(=O)N[C@@H](Cc1ccccc1)C(=O)N[C@@H](CCCCN)C(=O)NCC(=O)N[C@@H](Cc1ccccc1)C(=O)N[C@@H](C)C(=O)N[C@@H](Cc1c[nH]c2ccccc12)C(=O)N[C@@H](CC(N)=O)C(=O)N[C@H](C(=O)N[C@H]1CSSC[C@@H](C(=O)N[C@@H](Cc2c[nH]cn2)C(=O)N[C@@H](CCCNC(=N)N)C(=O)N[C@@H](CCCNC(=N)N)C(=O)N[C@@H](C)C(=O)N[C@@H](CC(N)=O)C(N)=O)NC(=O)[C@H](C(C)C)NC(=O)[C@H](CCCNC(=N)N)NC(=O)[C@H](C(C)C)NC(=O)CNC(=O)[C@H](CC(N)=O)NC(=O)[C@H](CCCNC(=N)N)NC(=O)[C@H](Cc2ccc(O)cc2)NC(=O)[C@H](C(C)C)NC1=O)C(C)C)C(C)C,,HPLC,mouse liver homogenate,"2560 µM, 2.00 h, 50 mg/mL tissue",,remaining peptide,54.9% and 51.6% and 53.2%
CO[C@H]1C[C@@H]2CC[C@@H](C)[C@@](O)(O2)C(=O)C(=O)N2CCCC[C@H]2C(=O)O[C@H]([C@H](C)C[C@@H]2CC[C@@H](OC(=O)NCCOCCOCCOCCOCCOCCOCCOCCOCCC(=O)N3CCc4cc(Cn5nc(-c6ccc7oc(N)nc7c6)c6c(N)ncnc65)ccc4C3)[C@H](OC)C2)C[C@@H](O)[C@H](C)/C=C(\C)[C@@H](O)[C@@H](OC)C(=O)[C@H](C)C[C@H](C)/C=C/C=C/C=C/1C,,phase 1 dose escalation,advanced solid tumour patients,"intravenous, 6 mg weekly, grade ≥3",,AEs causing dose modification,41.7%
C[C@@H](NC(=O)N1C(=O)[C@H](Cc2ccnc(N)c2)[C@H]1C(=O)O)C1CCCCC1,,,healthy adult Chinese volunteers,"continuous intravenous infusion, 0.6 mg/kg/h, 5-day infusion, CTCAE 5.0 grading",,incidence of injection site erythema swelling,0%
Cc1cc(C)nc(Nc2ncc(C(=O)NCCc3c(C)[nH]c4ccccc34)cn2)c1,,,Sprague-Dawley rat,,,oral bioavailability,12%
C[C@]1(CO)Cc2ncn(-c3ccc(C#N)c(Cl)c3)c2C(=O)O1,,,"human, plasma","5 mg single dose, median",,tmax,30 min
CCC[C@@](N)(CO)CCc1ccc(OCCCCCC(C)C)cc1,,,dog,"oral, 10 mg/kg",,Cmax,343 nM
CC(C)n1c(C2CCNCC2)nc2c([N+](=O)[O-])c(Br)c(Br)cc21,,item: Pneumonia,AML patients,"dose not given, all doses",,related grade ≥3 adverse events,1%
CN1CC[C@@H](c2c(O)cc(O)c3c(=O)cc(-c4ccc(C(F)(F)F)cc4Cl)oc23)[C@@H]1CO,,item: respiratory failure,B-cell malignancies,"oral, 150 mg, grade 3 to 4, intermittent dosing",,patients with adverse event,0%
COC[C@@H](CC(C)C)NC(=O)c1ccc(C)c(C)c1,,,"Hsd:ICR (CD-1) mouse, female, bone marrow","oral, 1352 mg/kg, 24 h",,micronucleated PCE per 1000 PCE,0.1
COc1ccc(-c2c(-c3ccc(C#N)c(F)c3)nc(N3CCC(N)CC3)n(C)c2=O)cc1F,,item: Vomiting,neuroendocrine neoplasm patients,"oral, 60 mg, any grade, dose expansion",,treatment-related adverse event incidence,6%
C[C@@H]1N=C(c2ccccc2F)c2cc(Br)ccc2-n2cnc(C(=O)O)c21,,,"Swiss Webster mice, blood","oral gavage, 100 mg/kg",,Tmax,20 min
CCCN(CCC)CCNC(=O)c1cc(Sc2ccc(Cl)cc2)nc2ccccc12,Vero-E6,CellTiter-Glo ATP,,"concentration not given, 72 h, first round 5-point","baseline: DMSO 0%, hyamine -100%, more negative, more toxic",cytotoxicity efficacy,0%

# A few entries again:
SMILES,target or system,test,test system,setting,scale,endpoint,result
CN1CC[C@@H](c2c(O)cc(O)c3c(=O)cc(-c4ccc(C(F)(F)F)cc4Cl)oc23)[C@@H]1CO,,item: respiratory failure,B-cell malignancies,"oral, 150 mg, grade 3 to 4, intermittent dosing",,patients with adverse event,0%
CC(=O)Nc1cccc(-n2c(=O)n(C3CC3)c(=O)c3c(Nc4ccc(I)cc4F)n(C)c(=O)c(C)c32)c1,,,Japanese patients,part,,discontinuation due to adverse event,17%
COc1ncccc1-c1cnn2ccc(N3CCN(C(=O)OC(C)C)CC3)nc12,,,"rat, thermal hyperalgesia model, plasma","oral, 0.1 mg/kg, 180 min",,drug concentration,9 nM
Cc1cc(C)c(CNC(=O)c2cc(Cl)c3c(c2C)O[C@@](C)([C@H]2CC[C@H](N(C)C)CC2)O3)c(=O)[nH]1,,,relapsed/refractory NHL patients,"dose not given, trial, safety set, treatment-related TEAE grade 5",,incidence of mental status changes,0%
COC[C@@H](CC(C)C)NC(=O)c1ccc(C)c(C)c1,,,"Hsd:ICR (CD-1) mouse, female, bone marrow","oral, 1352 mg/kg, 24 h",,micronucleated PCE per 1000 PCE,0.1
Cc1cc(C)nc(Nc2ncc(C(=O)NCCc3c(C)[nH]c4ccccc34)cn2)c1,,,Sprague-Dawley rat,,,oral bioavailability,12%
